Measured values gathered from unrelated publications.
Compare with care: the assays were run in different laboratories. “And” joins repeats or separate records; there may be more than shown.
UniProt P78362, sequence (whole entry, looked up): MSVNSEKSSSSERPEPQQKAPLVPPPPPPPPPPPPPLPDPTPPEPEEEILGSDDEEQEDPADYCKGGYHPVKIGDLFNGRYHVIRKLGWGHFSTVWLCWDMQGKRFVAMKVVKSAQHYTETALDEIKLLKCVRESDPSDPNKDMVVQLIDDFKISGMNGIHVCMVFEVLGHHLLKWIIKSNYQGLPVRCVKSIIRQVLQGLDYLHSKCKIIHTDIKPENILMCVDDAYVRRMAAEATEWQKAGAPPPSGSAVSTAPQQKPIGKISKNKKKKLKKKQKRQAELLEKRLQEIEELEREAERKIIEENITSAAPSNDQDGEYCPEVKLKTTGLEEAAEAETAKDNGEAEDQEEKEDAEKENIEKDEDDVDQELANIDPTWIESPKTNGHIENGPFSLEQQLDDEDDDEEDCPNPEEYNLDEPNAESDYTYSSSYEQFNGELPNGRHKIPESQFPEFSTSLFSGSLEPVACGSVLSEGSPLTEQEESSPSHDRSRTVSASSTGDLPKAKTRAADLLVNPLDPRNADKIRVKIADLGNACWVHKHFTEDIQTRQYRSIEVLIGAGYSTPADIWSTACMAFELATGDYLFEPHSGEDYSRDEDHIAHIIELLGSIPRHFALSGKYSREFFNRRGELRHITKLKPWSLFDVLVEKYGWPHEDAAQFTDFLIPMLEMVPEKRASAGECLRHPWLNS

| Structure (SMILES) | target or system | assay | system | conditions | scale | endpoint | result |
| --- | --- | --- | --- | --- | --- | --- | --- |
| CCN(CC)CC(=O)Nc1cccc(-n2cc(-c3ccc4ccc(-c5cn(-c6cccc(NC(=O)CN(CC)CC)c6)nn5)cc4c3)nn2)c1 | RCC4 | PCR array, refers to: F3 |  | 5 x IC50, 4 h, normoxia | baseline: untreated | fold regulation | -1.46 |
| Nc1ncc(-c2cc(-c3cnn(CC(F)(F)F)c3)ncc2F)nc1C(=O)NC1CNCC(F)C1 (stereo not drawn) | p38-gamma | KINOMEscan competition binding |  | 1 µM | baseline: DMSO control | remaining binding | 100% |
| COC1CN([C@H]2CC[C@H]([C@@]3(C)Oc4c(Cl)cc(C(=O)NCc5c(SC)cc(C)[nH]c5=O)c(C)c4O3)CC2)C1 |  | RNA-seq, refers to: PRDM16 mouse homolog | mouse, HT-1376 xenograft, whole blood | dose not given | baseline: vehicle | log2 fold change | 4.56 |
| Cc1nn(-c2cccc(N)c2)c(=O)c2cnc(Nc3ccc(N4CCNCC4)cc3)nc12 | SRSF protein kinase 2 (SRPK2, Homo sapiens, UniProt P78362) | kinase activity, inhibitor, SelectScreen kinase profiling |  |  |  | IC50 | > 10000 nM |
| COc1cc(N(C)CCN(C)C)c(NC(=O)/C=C/c2cc(C)c(F)c(C)c2)cc1Nc1nccc(-c2cn(C)c3ccccc23)n1 | NCI-H1975 | cell growth or viability, MTT |  | 0.5 µM, 72 h |  | inhibition | 56.7% |
| C=CC(=O)Nc1cccc(Cn2ncc3cnc(Nc4cnn(CCOC)c4)nc32)c1 | ERBB4 human | binding, KINOMEscan |  | 100 nM | lower = stronger binding | percent of control | 43% |
| Cc1ncsc1-c1ccc(C(C)NC(=O)C2CC(O)CN2C(=O)C(NC(=O)CCCCCCCCCCN2CCCC(Nc3ncc(Cl)c(Nc4ccccc4S(=O)(=O)C(C)C)n3)C2)C(C)(C)C)cc1 (stereo not drawn) | 22Rv1 | RNA-seq, refers to: TBC1D25 mRNA |  | concentration not given | baseline: DMSO | log2 fold change | -1.09 |
| CN1CCCNC(=O)c2cccc(c2)C(=O)NCCCN(C)CCCNc2cccc3c2C(=O)c2cccc(c2C3=O)NCCC1 | SAS | RNA-Seq, refers to: PUM3 mRNA |  | 1 µM, 6 h | baseline: untreated cells | log2 fold change | -0.812 |
| Cn1ncc2cc(-c3cncc(Cl)c3N3CCC4(CCNC4=O)CC3)ccc21 | LS174T | gene expression, microarray, refers to: POU2AF1 mRNA |  | concentration not given, 24 h | baseline: untreated cells | log2 fold change | 2.45 |
| CNS(=O)(=O)Nc1nccc(Cc2c(C)c3ccc(Oc4ncccc4F)cc3oc2=O)c1F | HCC1419 | cell viability |  | 7 days |  | IC50 | 66 nM |
| COc1ccccc1-c1ccncc1C(=O)Nc1nnc(OCc2ccc(Cl)cc2)s1 | MDA-MB-436 BRCA1-mutant |  |  | 3 µM |  | colony count | 8 and 9 and 14 and 12 |
| CN(C)C(=O)c1ccnc(N2Cc3cn(Cc4ccc(Cl)cc4)nc3C2)n1 | HEK293 expressing GluA1 and GluA2 | glutamate excitotoxic cell death, CellTox Green |  | with: glutamate |  | IC50 | 25 nM |
| C=C(NC(=O)c1csc(-c2nc3c(cc2O)-c2nc(cs2)C(=O)NC(C(C)O)C(=O)NC(=C(C)OC)c2nc(cs2)C(=O)NC2c4nc(cs4)C(=O)NC(COC(=O)c4c5c6c(cccc6n4O)COC(=O)C(OC4CC(C)(O)C(N(C)C)C(C)O4)C2OC5)c2nc-3cs2)n1)C(N)=O (stereo not drawn) |  |  | Sprague-Dawley rat, both sexes, plasma | intravenous infusion, 2 mg/kg single dose |  | MRT(0-last) | 40.8 min |
| O=C(C[Se]C(=O)c1ccccc1Nc1cccc(C(F)(F)F)c1)Nc1cccc(C(F)(F)F)c1 | NCI60 CNS subpanel | NCI60 five-dose screen |  |  |  | mean TGI | 3360 nM |
| CC(C)c1ccc(N(C)c2ccc3c(c2)OCC[C@H]3CNc2cnccc2C(=O)O)cc1 | RKO | cell growth or viability, ATP luminescence |  | 7 days |  | IC50 | 11.5 nM |

Repeated from above:
| Structure (SMILES) | target or system | assay | system | conditions | scale | endpoint | result |
| --- | --- | --- | --- | --- | --- | --- | --- |
| C=C(NC(=O)c1csc(-c2nc3c(cc2O)-c2nc(cs2)C(=O)NC(C(C)O)C(=O)NC(=C(C)OC)c2nc(cs2)C(=O)NC2c4nc(cs4)C(=O)NC(COC(=O)c4c5c6c(cccc6n4O)COC(=O)C(OC4CC(C)(O)C(N(C)C)C(C)O4)C2OC5)c2nc-3cs2)n1)C(N)=O (stereo not drawn) |  |  | Sprague-Dawley rat, both sexes, plasma | intravenous infusion, 2 mg/kg single dose |  | MRT(0-last) | 40.8 min |
